{"data": "Experimental data collected from several papers", "note": "Each numbered part is a random draw from the data of one study; scales do not carry over between parts.", "sequence of UniProt P30530 (whole entry, looked up)": "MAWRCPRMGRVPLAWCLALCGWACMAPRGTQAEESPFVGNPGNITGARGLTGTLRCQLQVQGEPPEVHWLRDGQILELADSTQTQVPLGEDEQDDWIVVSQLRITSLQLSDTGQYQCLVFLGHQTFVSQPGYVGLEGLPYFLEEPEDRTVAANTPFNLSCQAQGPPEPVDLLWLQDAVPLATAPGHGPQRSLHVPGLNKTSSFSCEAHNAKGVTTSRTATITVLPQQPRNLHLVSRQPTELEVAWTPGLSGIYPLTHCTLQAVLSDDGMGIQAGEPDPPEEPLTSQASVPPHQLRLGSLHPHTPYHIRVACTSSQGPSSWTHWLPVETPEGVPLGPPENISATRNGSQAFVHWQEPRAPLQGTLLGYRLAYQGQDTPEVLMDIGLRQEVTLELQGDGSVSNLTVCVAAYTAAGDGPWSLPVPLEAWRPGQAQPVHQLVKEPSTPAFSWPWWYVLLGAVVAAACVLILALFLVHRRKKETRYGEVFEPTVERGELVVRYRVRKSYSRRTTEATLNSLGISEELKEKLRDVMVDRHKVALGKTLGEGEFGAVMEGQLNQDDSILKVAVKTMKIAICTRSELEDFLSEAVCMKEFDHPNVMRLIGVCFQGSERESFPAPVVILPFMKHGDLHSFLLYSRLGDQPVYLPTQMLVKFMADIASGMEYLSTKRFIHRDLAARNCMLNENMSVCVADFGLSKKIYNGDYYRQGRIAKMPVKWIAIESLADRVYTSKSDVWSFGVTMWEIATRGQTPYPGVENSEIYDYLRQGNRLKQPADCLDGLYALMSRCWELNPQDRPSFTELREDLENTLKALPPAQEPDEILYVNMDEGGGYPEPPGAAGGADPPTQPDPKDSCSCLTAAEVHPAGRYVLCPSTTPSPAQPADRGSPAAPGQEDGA", "sequence of UniProt Q9H093 (whole entry, looked up)": "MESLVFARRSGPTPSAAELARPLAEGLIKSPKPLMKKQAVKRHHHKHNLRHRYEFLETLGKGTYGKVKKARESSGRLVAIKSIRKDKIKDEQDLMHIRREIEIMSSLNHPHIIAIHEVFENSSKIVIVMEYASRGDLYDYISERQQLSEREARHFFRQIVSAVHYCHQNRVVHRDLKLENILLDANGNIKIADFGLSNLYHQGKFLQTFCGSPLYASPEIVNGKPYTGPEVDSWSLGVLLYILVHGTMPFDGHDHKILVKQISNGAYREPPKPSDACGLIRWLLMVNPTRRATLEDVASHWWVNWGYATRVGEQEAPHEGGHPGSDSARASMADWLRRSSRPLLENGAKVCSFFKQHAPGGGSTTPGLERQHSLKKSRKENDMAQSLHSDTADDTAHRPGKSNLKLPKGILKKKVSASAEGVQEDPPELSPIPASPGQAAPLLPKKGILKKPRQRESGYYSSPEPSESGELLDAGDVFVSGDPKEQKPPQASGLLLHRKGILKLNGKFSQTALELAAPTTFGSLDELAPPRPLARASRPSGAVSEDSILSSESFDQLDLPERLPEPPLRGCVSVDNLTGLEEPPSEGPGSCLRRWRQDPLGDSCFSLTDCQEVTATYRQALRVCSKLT", "sequence of UniProt P80192 (whole entry, looked up)": "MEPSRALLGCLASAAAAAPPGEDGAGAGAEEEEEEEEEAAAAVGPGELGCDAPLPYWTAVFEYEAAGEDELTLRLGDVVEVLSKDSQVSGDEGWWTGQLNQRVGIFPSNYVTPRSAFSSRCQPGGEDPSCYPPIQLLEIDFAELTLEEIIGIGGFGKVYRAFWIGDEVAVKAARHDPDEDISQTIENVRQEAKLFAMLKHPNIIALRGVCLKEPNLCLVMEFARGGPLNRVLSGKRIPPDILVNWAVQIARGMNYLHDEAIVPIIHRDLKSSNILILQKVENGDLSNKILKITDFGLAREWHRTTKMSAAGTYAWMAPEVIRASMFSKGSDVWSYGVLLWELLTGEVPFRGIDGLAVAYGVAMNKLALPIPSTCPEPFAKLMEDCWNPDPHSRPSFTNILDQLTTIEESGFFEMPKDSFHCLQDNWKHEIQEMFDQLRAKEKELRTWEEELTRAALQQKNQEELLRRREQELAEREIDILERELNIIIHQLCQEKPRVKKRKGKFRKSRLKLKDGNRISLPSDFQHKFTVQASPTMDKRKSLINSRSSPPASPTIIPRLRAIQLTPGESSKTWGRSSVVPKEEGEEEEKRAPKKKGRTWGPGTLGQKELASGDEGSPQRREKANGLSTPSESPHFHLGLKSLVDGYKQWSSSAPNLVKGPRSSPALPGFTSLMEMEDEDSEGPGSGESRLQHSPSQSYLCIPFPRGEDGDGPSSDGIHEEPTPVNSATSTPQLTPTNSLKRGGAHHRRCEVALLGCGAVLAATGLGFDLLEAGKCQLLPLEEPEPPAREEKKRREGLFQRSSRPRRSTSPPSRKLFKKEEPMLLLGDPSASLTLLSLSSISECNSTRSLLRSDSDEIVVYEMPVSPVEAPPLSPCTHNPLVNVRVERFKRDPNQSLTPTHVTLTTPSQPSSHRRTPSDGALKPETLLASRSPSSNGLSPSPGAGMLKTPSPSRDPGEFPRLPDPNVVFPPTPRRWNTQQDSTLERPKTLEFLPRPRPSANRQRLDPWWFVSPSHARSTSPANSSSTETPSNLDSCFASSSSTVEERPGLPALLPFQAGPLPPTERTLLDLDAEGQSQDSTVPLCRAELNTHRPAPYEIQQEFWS", "sequence of UniProt Q9Y2U5 (whole entry, looked up)": "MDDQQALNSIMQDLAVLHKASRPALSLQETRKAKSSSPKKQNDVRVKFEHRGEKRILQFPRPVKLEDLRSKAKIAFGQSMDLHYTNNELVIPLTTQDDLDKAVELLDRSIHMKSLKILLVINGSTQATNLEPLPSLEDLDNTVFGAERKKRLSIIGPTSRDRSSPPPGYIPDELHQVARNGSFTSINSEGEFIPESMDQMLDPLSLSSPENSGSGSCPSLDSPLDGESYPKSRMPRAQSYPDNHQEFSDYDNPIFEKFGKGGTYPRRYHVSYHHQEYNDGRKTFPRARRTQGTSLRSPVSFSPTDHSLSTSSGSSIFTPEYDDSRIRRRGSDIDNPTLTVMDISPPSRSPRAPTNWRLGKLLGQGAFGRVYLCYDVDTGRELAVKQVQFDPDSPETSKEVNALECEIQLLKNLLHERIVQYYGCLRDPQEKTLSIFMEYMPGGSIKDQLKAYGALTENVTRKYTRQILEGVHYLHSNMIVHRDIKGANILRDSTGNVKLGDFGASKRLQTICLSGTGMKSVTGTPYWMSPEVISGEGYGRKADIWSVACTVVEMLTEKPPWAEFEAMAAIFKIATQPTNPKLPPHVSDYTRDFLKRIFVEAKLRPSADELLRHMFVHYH", "sequence of UniProt P41240 (whole entry, looked up)": "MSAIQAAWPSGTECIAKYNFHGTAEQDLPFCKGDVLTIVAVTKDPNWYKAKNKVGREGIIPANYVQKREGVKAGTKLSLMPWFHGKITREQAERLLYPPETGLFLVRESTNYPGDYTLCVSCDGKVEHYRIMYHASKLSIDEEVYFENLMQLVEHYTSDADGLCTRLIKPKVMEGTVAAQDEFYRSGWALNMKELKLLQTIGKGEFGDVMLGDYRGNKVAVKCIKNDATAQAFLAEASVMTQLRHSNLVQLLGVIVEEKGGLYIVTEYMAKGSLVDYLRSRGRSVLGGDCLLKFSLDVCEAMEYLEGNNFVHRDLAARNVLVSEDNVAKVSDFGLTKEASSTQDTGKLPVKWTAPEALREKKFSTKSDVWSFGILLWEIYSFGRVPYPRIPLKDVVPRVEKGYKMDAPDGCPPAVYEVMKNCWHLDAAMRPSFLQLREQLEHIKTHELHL"}
{"data": "Sample 1", "target": "TAR DNA-binding protein 43, full length, His tag (TARDBP, Homo sapiens, UniProt Q13148, residues 1-414)", "method": "RNA Bind-n-Seq", "form": "RNA", "medium": "in vitro", "concentration": "20 nM", "notes": "6-mer, flanks averaged, single round", "added": "150 mM LiCl", "baseline": "input library", "direction": "higher = stronger binding"}
{"Sequence": "GAACUC", "6-mer enrichment (R)": 1.08}
{"Sequence": "CUGGAA", "6-mer enrichment (R)": 0.88}
{"Sequence": "AUGAUG", "6-mer enrichment (R)": 1.04}
{"Sequence": "UACAUA", "6-mer enrichment (R)": 0.873}
{"Sequence": "AGGUGG", "6-mer enrichment (R)": 1.27}
{"Sequence": "GGAAUU", "6-mer enrichment (R)": 0.982}
{"Sequence": "UGAUCU", "6-mer enrichment (R)": 0.873}
{"Sequence": "AAUACG", "6-mer enrichment (R)": 0.848}
{"data": "Sample 2", "Compound": "CC(=O)Nc1c(C(C)=O)c(=O)n(C)c2nc(-c3ccc(Cl)cc3Cl)c(-c3ccc(Cl)cc3)cc12", "effect on": "cell-free assay", "method": "competition with immobilised ligand", "concentration": "1 µM"}
{"target": "TGF-beta receptor type-2 (TGFBR2, Homo sapiens, UniProt P37173)", "remaining binding": "100%"}
{"target": "Receptor tyrosine-protein kinase erbB-2 (ERBB2, Homo sapiens, UniProt P04626)", "remaining binding": "100%"}
{"target": "Tyrosine-protein kinase receptor UFO (AXL, Homo sapiens, UniProt P30530)", "remaining binding": "100%"}
{"target": "Peripheral plasma membrane protein CASK (CASK, Homo sapiens, UniProt O14936)", "remaining binding": "83%"}
{"target": "Tyrosine-protein kinase CSK (CSK, Homo sapiens, UniProt P41240)", "remaining binding": "100%"}
{"target": "NUAK family SNF1-like kinase 2 (NUAK2, Homo sapiens, UniProt Q9H093)", "remaining binding": "100%"}
{"target": "Proto-oncogene tyrosine-protein kinase ROS (ROS1, Homo sapiens, UniProt P08922)", "remaining binding": "99%"}
{"target": "Mitogen-activated protein kinase kinase kinase 9 (MAP3K9, Homo sapiens, UniProt P80192)", "remaining binding": "100%"}
{"target": "Cyclin-dependent kinase 3 (CDK3, Homo sapiens, UniProt Q00526)", "remaining binding": "100%"}
{"target": "Phosphatidylinositol 4,5-bisphosphate 3-kinase catalytic subunit gamma isoform (PIK3CG, Homo sapiens, UniProt P48736)", "remaining binding": "78%"}
{"target": "Mitogen-activated protein kinase kinase kinase 2 (MAP3K2, Homo sapiens, UniProt Q9Y2U5)", "remaining binding": "100%"}
{"target": "Interleukin-1 receptor-associated kinase 1 (IRAK1, Homo sapiens, UniProt P51617)", "remaining binding": "97%"}
{"data": "Sample 3", "target": "RING finger protein unkempt homolog, zinc fingers 1-6, SBP tag (UNK, Homo sapiens, UniProt Q9C0B0, residues 30-357)", "method": "RNA Bind-n-Seq", "form": "RNA", "medium": "in vitro", "concentration": "100 nM", "notes": "RNA with constant flanks, vertebrate orthologous sites, ends assumed", "baseline": "input RNA pool", "direction": "higher = stronger binding", "sequence of UniProt Q9C0B0 (30-357, looked up)": "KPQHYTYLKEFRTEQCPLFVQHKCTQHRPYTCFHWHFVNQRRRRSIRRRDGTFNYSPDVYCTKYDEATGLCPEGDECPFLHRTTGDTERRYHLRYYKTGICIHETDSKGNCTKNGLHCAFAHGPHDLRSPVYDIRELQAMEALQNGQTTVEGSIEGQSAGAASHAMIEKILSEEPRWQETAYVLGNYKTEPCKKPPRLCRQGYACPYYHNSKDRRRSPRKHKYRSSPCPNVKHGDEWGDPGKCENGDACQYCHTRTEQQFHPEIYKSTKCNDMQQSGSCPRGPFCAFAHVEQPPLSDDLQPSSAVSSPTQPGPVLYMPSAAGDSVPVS"}
{"Sequence": "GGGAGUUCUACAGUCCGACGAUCUAUAAUUAUGAAAAUCUAACGGAUUUUUAAUGUUUAAUUUCCCCCAACAUAUAUAUGAAGACCUUUUUUUUUUUUUCCAGGCAGAUCAUUCAGAGUGUGCGAGUGUGUGUGCACAUGUUACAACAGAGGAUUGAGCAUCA", "bound/input enrichment [ratio]": 1.1}
{"Sequence": "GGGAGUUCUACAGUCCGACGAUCCAGCUGAUUCACUUAUUGGGAGAGCUGCACAUAUUGCUGUUCUUGAUUCAGAAAUAUUUUUAGAAAAAUUUUUUCUAGUGGCUGCUCUAAAAUAUUUCCAGUAGCAUAAAAGCAUUGUUACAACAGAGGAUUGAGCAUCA", "bound/input enrichment [ratio]": 0.507}
{"Sequence": "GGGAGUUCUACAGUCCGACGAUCAGCAGUAUAGGUUAUAUUUGAACUGUGGGGAAGAGAGCUUUGCAUUUUUUAUAUUUAAAUAGGAUACUUUUUAUAUGAUGGGUGCUUUGAGUGUGAAUGCAGCAGGCUCUCCAUUUCAGACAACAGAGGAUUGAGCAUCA", "bound/input enrichment [ratio]": 1.78}
{"Sequence": "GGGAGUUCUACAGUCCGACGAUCCUACAAUAAUGAAAAACCUACCAGGAAUUUUUUUAUUUUUCAUUUCCCCUUGGGCAUUCCUAGUCUUUUUUCCCCCCAGGCAGAUCAUUCUGAGUGUGCGAGUGUGUGUGCACAUGUUACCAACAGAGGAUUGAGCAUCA", "bound/input enrichment [ratio]": 0.732}
{"Sequence": "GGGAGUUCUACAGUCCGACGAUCAUACUAUUCAUUUGACUGAAGUUAUUUAGAUAAAAGAAAUGGUUUAUGUCUUCUUUCAAGAAGCUUGUUCUAUUUUUCAUCUAUUUGUAAAUGCCAGUUGUGUGUGGUUUUGUAAUAUCACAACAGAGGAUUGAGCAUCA", "bound/input enrichment [ratio]": 0.295}
{"Sequence": "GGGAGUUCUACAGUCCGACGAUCCUUCCUCCAACUUCAGUUUUUCAGGUUGUAGCUGUUCCAUCUUUUCUUCUUCCCCUCCUCUCACUGUUGCUUUCCUUUCCUUUCUGUCUGCCCAACUCCAGACACAUGAGCUCUUCCCCUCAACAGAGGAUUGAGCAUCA", "bound/input enrichment [ratio]": 1.28}
{"Sequence": "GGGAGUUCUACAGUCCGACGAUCGCACUACCUAUACCAAUUUUACAACAUUGAAUGCAAACUAGUGAAUUUCAUAGUCACAGAGGAAGAUAGCUUUAGGGAACUGUCUCCAUGGGUUUUACUUGUGUAGGUUUUGAAAAUGUACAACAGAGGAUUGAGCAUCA", "bound/input enrichment [ratio]": 1.06}
{"Sequence": "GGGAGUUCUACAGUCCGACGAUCAUCACAGUCGCUUUUUACCACCUCAAUGAGGUAGAGUCUCUCUUGGCAUGUGGUUGUUACAAGAGCCAGUCGUACCUGACAAGUCUUUCCACGUUUCAUUUCUUUCACAUUCUUGGUCUUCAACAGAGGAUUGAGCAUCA", "bound/input enrichment [ratio]": 0.595}
{"data": "Sample 4", "target": "Fibroblast growth factor receptor 1 (FGFR1, Homo sapiens, UniProt P11362)", "effect on": "enzyme activity", "action": "inhibitor", "concentration": "0.5 µM", "baseline": "control", "sequence of UniProt P11362 (whole entry, looked up)": "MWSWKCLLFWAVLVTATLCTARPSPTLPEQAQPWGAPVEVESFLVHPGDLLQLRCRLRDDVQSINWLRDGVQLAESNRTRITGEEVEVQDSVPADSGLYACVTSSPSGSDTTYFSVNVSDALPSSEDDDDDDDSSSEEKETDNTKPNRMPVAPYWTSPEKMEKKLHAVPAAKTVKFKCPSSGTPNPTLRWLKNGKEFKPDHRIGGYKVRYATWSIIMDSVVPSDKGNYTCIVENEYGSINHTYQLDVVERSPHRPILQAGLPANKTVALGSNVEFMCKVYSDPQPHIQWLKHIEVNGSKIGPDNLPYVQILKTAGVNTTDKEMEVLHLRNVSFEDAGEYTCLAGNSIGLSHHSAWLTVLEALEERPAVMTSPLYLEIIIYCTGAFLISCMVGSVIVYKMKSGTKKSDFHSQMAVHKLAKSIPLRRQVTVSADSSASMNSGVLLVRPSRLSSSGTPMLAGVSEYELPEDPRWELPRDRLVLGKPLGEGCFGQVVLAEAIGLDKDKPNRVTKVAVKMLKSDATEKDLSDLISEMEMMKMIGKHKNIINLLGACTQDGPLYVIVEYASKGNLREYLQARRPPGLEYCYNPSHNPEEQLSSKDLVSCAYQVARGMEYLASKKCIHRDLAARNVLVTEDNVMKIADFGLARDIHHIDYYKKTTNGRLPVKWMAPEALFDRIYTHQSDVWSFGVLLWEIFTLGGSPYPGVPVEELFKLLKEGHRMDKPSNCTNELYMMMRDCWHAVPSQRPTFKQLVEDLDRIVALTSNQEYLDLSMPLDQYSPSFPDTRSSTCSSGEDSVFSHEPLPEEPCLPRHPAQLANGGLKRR"}
{"SMILES": "NCCNc1ncc(C(N)=O)c(Nc2cccc(C(F)(F)F)c2)n1", "remaining activity [%]": 90}
{"SMILES": "Cc1ccc(NC(=O)c2ccc(CN3CCN(C)CC3)cc2)cc1Nc1nc(-c2cccnc2)cs1", "remaining activity [%]": 103}
{"SMILES": "COc1cc2nccc(Oc3ccc(NC(=S)NC(=O)c4ccccc4C)cc3)c2cc1OC", "remaining activity [%]": 75.7}
{"SMILES": "Cc1nc(-c2ccccc2)c(-c2ccncc2)o1", "remaining activity [%]": 90.9}
{"SMILES": "COc1ccc(C(=O)Nc2sc3c(c2C(N)=O)CCCC3)cc1OC", "remaining activity [%]": 94.8}
{"SMILES": "CC(C)[C@H](CO)Nc1nc(Nc2cc(N)cc(Cl)c2)c2ncn(C(C)C)c2n1", "remaining activity [%]": 76.7}
{"SMILES": "C#Cc1cccc(Nc2ncnc3cc(OCCOC)c(OCCOC)cc23)c1", "remaining activity [%]": 99.1}
{"SMILES": "O=C1NC(=O)C(c2cn(CCCn3ccnc3)c3ccccc23)=C1Nc1ccccc1", "remaining activity [%]": 78.5}
{"SMILES": "Cn1c2ccccc2c2c3c(c4c5ccccc5n(CCC#N)c4c21)CNC3=O", "remaining activity [%]": 63.3}
{"SMILES": "Cc1cccc(-c2[nH]c(C(C)(C)C)nc2-c2ccc3c(c2)OCO3)n1", "remaining activity [%]": 90.8}
{"SMILES": "O=C1NC(=O)C(c2cn(CCCO)c3ncccc23)=C1c1cnccn1", "remaining activity [%]": 81.2}
{"SMILES": "COc1ccc(OC)c2c(=S)c3ccccc3[nH]c12", "remaining activity [%]": 89.6}
{"SMILES": "OCC(O)CCON=C1C(c2c(O)[nH]c3ccccc23)=Nc2ccccc21 (stereo not drawn)", "remaining activity [%]": 27.9}
{"SMILES": "O=C(CCCc1ccc(-c2ccccc2F)cc1)Nc1ccc(O)cc1", "remaining activity [%]": 98}
